{"data": "Assay results pooled from the literature", "note": "Parts stem from different laboratories: compare values within a part only."}
{"data": "Series 1", "target": "Sox, HMG box (Pigoraptor chileana)", "technique": "Spec-seq", "form": "double-stranded DNA, one strand shown", "matrix": "in vitro", "concentration": "not given", "setting": "whole probe, mean of replicates", "relative to": "not given", "reading": "lower = stronger binding", "shared flanks, not repeated": "GAGTCGTCTCGTCAGCAC … CCGTAGAGCACTCAGGTC", "Residues (chain)": "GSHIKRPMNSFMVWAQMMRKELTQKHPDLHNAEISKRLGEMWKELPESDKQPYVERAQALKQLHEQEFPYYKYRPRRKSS"}
{"Oligonucleotide": "TTCTGTT", "relative binding energy": "-1.24 ln ratio"}
{"Oligonucleotide": "ACGCGTT", "relative binding energy": "0.574 ln ratio"}
{"Oligonucleotide": "CATCGCT", "relative binding energy": "0.597 ln ratio"}
{"Oligonucleotide": "CTCTGTT", "relative binding energy": "-1.27 ln ratio"}
{"Oligonucleotide": "CATAATA", "relative binding energy": "-1.5 ln ratio"}
{"Oligonucleotide": "AGGGGTT", "relative binding energy": "0.416 ln ratio"}
{"Oligonucleotide": "CATGAAG", "relative binding energy": "0.208 ln ratio"}
{"Oligonucleotide": "CATCGAG", "relative binding energy": "0.47 ln ratio"}
{"data": "Series 2", "target": "PABPC1L2, full length, GST fusion (mouse, UniProt A0ABA7IW68)", "technique": "RNAcompete", "form": "RNA", "matrix": "in vitro", "concentration": "20 nM", "setting": "7-mer, probes averaged, single round", "relative to": "mean of 7-mers", "reading": "higher = stronger binding", "Target sequence (chain)": "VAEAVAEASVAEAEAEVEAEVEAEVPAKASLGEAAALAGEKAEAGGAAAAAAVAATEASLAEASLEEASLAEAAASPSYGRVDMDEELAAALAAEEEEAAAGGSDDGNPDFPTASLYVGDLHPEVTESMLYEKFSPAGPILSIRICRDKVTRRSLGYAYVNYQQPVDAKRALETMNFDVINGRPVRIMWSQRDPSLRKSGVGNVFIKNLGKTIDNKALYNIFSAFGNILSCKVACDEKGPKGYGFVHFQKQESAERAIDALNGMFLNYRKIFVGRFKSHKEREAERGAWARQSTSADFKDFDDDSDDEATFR"}
{"Oligonucleotide": "UUGCGCA", "7-mer Z-score": -0.0446}
{"Oligonucleotide": "CUUGAGU", "7-mer Z-score": -0.233}
{"Oligonucleotide": "UACACAA", "7-mer Z-score": 0.14}
{"Oligonucleotide": "AGCGAAU", "7-mer Z-score": -0.0228}
{"Oligonucleotide": "AGCACCC", "7-mer Z-score": -0.141}
{"Oligonucleotide": "GUAGAAA", "7-mer Z-score": 1.94}
{"Oligonucleotide": "AAUCAGU", "7-mer Z-score": 0.0515}
{"Oligonucleotide": "UGUGAGU", "7-mer Z-score": -0.293}
{"data": "Series 3", "target": "Prothrombin, mature alpha-thrombin (F2, Homo sapiens, UniProt P00734)", "technique": "aptamer microarray, sandwich", "form": "DNA with 2'F-ANA", "matrix": "in vitro", "concentration": "200 nM", "setting": "whole 15-mer aptamer, many near background", "with": "Cy3 exosite-II aptamer, 400 nM", "reading": "higher = stronger binding", "oligonucleotide": "GGTTGGTGTGGTTGG"}
{"Modification": "2'F-ANA at 2 3 6 7 9 10 13 15", "mean fluorescence intensity [a.u.]": 275}
{"Modification": "2'F-ANA at 3 5 12 14 15", "mean fluorescence intensity [a.u.]": 77.8}
{"Modification": "2'F-ANA at 1 2 3 4 8 14", "mean fluorescence intensity [a.u.]": 69.4}
{"Modification": "2'F-ANA at 1 2 4 5 6 9 12 14 15", "mean fluorescence intensity [a.u.]": 45.1}
{"Modification": "2'F-ANA at 1 4 8 9 10 12 14", "mean fluorescence intensity [a.u.]": 301}
{"Modification": "2'F-ANA at 1 3 4 5 11 14", "mean fluorescence intensity [a.u.]": 44.1}
{"Modification": "2'F-ANA at 1 3 4 6 8 10 13 15", "mean fluorescence intensity [a.u.]": 163}
{"Modification": "2'F-ANA at 3 5 6 7 10 11 12 13 15", "mean fluorescence intensity [a.u.]": 57.8}
{"data": "Further values, each from its own experiment"}
{"Compound": "Cc1c(CN2C[C@H]3CC[C@@H](C2)NC3)oc2ccccc12", "host": "human", "matrix": "microsomes or S9", "concentration": "2 µM", "time": "0.5 h", "endpoint": "remaining compound", "result": "95.5%"}
